# Results from different studies.
# Numbered parts are unrelated; each lists some results of a single study.

# Block 1
# Target: Prothrombin, mature alpha-thrombin (F2, Homo sapiens, UniProt P00734)
# Technique: aptamer microarray, sandwich
# Molecule type: DNA with 2'F-ANA
# Matrix: in vitro
# Tested at: 200 nM
# Notes: whole 15-mer aptamer, many near background
# With: Cy3 exosite-II aptamer, 400 nM
# Reading: higher = stronger binding
# Strand: GGTTGGTGTGGTTGG
Modification,mean fluorescence intensity [a.u.]
2'F-ANA at 2 4 5 6 7 12 13,84
2'F-ANA at 6 7 8 9 10 13,148
2'F-ANA at 2 3 7 8 9 14,511
2'F-ANA at 3 6 9 12 14,645
2'F-ANA at 3 6 8 9 10 12 14,348
2'F-ANA at 2 3 5 7 9 14 15,54.3

# Block 2
# Target: Transcription factor SOX-2, HMG box (Sox2, Mus musculus, UniProt P48432, residues 41-119)
# Sequence of UniProt P48432 (41-119, looked up): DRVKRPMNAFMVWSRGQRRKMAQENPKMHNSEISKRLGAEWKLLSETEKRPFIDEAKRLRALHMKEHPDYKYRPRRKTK
# Technique: Spec-seq
# Molecule type: double-stranded DNA, one strand shown
# Matrix: in vitro
# Tested at: not given
# Notes: whole probe, mean of replicates
# Baseline: not given
# Reading: lower = stronger binding
# Constant ends, left off below: GAGTCGTCTCGTCAGCAC … GTTCCGTAGAGCACTCAGGTC
Strand,relative binding energy [ln ratio]
AGAC,0.9
CATT,-2.77
CCAC,1.13
AAAT,-0.946
GTCT,0.128

# Block 3
# Target: Centromere-binding protein 1, full length, N-terminal tag (CBF1, Saccharomyces cerevisiae, UniProt P17106, residues 1-351)
# Sequence of UniProt P17106 (whole entry, looked up): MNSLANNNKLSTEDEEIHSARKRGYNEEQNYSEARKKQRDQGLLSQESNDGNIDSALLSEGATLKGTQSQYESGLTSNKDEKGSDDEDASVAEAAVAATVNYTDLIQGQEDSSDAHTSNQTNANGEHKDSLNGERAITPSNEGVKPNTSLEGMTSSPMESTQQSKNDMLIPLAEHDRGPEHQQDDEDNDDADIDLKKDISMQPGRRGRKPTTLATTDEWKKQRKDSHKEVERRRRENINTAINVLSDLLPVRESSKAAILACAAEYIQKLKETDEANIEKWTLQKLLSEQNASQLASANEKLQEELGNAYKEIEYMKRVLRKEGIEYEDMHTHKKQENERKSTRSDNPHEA
# Technique: protein-binding microarray
# Molecule type: double-stranded DNA, one strand shown
# Matrix: in vitro
# Tested at: 0.8 µM
# Notes: whole 60-bp probe, no competitor
# Reading: higher = stronger binding
Strand,fluorescence intensity [a.u.]
CCTAACTACTATAGTGATGTTCCATAGCTTCGTACAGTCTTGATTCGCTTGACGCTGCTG,525
CCTAACTACTATAAAAACACGGGATAGCTTCGTACAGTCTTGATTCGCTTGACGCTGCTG,661
CTAGGCAACTAGAATCACACGTCAGCGTCATGCTTCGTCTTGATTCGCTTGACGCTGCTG,570
CTACGTATCCTTGTACGCGTGATTTATTTATATTTCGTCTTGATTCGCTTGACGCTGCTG,1600
CTATAGTGAATATATCACGAGTTACAATAGAGTTTCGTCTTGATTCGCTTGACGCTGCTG,1100
GAACTTGGAGAATAACATGTGATCTGAAAACTCTAGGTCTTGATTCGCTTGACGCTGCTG,4300
CCTAACTACTATAGTCACATTAAATAGCTTCGTACAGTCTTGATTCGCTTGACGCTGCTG,550
GAATCTGGAGTAATTCTCGTGATCTTGTTTAATTAGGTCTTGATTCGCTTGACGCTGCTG,1060

# Mixed results
Substance,target,test,test system,conditions,how to read,quantity,value
"PhoQ, residues 284 288 289 292 302 303 ASHLAV","PhoP, residues 12 14 15 18 19 NMSFL (Escherichia coli, UniProt P23836)","Sort-seq, measured: YFP reporter",E. coli,"PhoQ-PhoP variant library, with: 10 µM Mg2+","baseline: high Mg2+ state, higher = stronger signaling",fold induction,13.3

# Some of these lines once more (block 1):
Modification,mean fluorescence intensity [a.u.]
2'F-ANA at 2 3 5 7 9 14 15,54.3
2'F-ANA at 3 6 8 9 10 12 14,348
2'F-ANA at 2 4 5 6 7 12 13,84
